# Measurements of several laboratories.
# Numbered parts are unrelated; each lists some results of a single study.
# UniProt Q86Z02, sequence (whole entry, looked up): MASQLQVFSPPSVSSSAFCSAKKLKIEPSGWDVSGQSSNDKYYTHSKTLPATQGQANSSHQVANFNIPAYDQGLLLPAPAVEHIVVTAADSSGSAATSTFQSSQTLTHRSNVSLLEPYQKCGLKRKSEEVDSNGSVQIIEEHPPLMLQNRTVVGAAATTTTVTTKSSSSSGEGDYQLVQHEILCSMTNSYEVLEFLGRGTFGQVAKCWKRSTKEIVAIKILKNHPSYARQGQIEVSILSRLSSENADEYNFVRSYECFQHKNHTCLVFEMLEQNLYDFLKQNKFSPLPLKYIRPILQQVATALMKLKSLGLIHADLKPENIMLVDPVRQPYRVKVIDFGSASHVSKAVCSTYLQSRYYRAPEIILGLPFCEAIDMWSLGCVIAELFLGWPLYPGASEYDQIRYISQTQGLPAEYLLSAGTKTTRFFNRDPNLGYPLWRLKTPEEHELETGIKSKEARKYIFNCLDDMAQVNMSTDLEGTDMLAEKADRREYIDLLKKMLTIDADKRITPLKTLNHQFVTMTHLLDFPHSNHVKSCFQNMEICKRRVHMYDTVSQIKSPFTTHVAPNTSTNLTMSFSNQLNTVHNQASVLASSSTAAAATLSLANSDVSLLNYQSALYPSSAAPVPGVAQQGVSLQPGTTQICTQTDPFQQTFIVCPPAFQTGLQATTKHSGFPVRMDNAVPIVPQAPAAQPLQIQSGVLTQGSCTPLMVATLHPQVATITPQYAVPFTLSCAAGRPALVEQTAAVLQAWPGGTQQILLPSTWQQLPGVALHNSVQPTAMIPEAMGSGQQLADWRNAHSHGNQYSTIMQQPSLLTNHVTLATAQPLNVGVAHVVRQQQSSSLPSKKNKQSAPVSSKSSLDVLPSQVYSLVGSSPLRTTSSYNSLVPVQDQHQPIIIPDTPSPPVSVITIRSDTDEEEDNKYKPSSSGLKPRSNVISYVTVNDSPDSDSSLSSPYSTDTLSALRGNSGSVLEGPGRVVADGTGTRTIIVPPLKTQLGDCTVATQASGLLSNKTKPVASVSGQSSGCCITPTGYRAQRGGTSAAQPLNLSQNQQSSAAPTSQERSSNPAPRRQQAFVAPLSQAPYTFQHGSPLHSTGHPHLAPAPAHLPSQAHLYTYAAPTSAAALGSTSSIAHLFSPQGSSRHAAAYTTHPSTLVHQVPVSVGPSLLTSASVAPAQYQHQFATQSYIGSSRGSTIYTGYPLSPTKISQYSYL
# UniProt P54753, sequence (whole entry, looked up): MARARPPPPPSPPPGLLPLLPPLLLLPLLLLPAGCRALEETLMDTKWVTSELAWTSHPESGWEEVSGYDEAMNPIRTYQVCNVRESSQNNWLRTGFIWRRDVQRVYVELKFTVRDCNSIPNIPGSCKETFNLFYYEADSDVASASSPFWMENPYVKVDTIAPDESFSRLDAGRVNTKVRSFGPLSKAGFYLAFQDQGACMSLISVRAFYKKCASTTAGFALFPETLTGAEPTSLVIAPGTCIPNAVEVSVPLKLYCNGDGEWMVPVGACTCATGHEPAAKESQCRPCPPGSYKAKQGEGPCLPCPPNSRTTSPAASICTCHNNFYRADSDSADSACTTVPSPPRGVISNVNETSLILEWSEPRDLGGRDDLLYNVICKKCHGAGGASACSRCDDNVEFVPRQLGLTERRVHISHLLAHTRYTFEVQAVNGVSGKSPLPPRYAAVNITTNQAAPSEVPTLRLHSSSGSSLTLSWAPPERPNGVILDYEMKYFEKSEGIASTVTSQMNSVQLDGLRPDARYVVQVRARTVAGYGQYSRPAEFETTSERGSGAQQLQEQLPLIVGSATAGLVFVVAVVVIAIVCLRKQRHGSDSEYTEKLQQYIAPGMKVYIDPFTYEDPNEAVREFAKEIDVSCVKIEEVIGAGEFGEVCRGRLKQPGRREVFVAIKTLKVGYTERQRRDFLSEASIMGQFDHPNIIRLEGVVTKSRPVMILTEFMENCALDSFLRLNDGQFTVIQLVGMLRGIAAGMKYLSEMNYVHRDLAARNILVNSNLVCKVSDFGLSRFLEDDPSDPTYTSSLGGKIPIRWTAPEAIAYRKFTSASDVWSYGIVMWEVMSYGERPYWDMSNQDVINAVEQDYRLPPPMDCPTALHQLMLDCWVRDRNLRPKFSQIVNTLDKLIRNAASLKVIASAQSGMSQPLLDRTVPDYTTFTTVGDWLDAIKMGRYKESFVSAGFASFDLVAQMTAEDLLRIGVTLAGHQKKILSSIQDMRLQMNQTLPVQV
# UniProt P31152, sequence (whole entry, looked up): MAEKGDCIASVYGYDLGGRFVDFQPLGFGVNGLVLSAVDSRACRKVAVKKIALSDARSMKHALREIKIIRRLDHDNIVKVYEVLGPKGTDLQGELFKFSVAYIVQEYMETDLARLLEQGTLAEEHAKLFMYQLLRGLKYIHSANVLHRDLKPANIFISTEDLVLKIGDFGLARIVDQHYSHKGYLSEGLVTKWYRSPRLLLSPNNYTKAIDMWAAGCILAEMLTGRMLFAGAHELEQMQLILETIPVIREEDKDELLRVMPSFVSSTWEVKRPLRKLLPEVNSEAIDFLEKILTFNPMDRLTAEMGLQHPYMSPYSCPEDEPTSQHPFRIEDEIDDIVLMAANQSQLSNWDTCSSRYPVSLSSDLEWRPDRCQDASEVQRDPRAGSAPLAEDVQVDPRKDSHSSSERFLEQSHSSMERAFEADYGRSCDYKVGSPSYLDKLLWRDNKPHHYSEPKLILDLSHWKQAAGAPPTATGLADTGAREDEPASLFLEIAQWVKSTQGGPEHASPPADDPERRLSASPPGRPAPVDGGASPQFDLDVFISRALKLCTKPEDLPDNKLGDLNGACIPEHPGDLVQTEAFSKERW
# UniProt P52333, sequence (whole entry, looked up): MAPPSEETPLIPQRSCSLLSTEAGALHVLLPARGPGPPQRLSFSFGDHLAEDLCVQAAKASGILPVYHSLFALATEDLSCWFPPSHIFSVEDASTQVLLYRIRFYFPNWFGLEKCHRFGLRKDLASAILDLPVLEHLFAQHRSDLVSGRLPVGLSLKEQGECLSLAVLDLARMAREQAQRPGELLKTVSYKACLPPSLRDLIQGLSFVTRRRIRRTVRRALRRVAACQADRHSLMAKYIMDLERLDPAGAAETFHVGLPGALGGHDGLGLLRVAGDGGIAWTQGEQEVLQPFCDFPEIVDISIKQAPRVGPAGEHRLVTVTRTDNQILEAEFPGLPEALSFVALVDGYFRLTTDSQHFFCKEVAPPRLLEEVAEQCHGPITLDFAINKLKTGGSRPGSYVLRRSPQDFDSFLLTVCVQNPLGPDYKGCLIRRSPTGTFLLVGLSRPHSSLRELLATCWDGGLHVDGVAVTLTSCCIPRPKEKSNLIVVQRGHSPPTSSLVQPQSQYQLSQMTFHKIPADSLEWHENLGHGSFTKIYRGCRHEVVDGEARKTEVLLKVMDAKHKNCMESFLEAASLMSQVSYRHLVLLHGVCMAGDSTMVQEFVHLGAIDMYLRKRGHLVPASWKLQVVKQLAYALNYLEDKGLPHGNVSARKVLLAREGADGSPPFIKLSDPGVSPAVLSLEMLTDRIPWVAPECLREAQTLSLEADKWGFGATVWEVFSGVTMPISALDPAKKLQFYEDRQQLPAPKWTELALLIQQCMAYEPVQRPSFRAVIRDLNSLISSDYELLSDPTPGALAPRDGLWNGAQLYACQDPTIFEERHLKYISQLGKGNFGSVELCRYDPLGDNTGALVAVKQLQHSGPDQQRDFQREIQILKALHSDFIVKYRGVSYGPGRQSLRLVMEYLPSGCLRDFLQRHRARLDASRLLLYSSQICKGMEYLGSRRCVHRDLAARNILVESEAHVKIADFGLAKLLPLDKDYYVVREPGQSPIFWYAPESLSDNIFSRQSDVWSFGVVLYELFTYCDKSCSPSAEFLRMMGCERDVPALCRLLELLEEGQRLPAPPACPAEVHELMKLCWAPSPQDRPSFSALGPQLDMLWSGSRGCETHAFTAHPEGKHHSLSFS
# UniProt P21728, sequence (whole entry, looked up): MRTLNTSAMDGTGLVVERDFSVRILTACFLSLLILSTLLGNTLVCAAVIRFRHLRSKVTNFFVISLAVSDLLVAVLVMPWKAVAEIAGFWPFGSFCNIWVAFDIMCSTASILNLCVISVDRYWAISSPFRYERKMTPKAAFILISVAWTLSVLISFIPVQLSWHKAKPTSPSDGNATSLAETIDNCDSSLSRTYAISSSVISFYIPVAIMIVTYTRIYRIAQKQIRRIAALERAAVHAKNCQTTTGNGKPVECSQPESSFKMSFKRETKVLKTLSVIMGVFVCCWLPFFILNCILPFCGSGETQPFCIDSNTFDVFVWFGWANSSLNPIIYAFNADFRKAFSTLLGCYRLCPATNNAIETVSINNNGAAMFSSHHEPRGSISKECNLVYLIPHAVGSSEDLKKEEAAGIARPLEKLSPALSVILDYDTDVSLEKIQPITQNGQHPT

# Study 1 — effect on: cell-free assay; method: competition with immobilised ligand; concentration: 1 µM
# SMILES: Cn1cncc1[C@@](O)(COc1ccc(C#N)cc1-c1ccc(OC(F)(F)F)cc1)c1ccc(C#N)cc1
target,remaining binding
"EPHA4 (Homo sapiens, UniProt P54764)",12%
"EPHB3 (Homo sapiens, UniProt P54753)",6%
"MAPK4 (Homo sapiens, UniProt P31152)",90%
"CDPK1 (Plasmodium falciparum, UniProt P62344)",75%
"DDR1 (Homo sapiens, UniProt Q08345)",100%

# Study 2
# SMILES: CNC(=O)c1ccc(-c2cnn3ccc(C(=O)N(C)c4ccc(Cl)c(C(=O)OC)c4)cc23)cc1
target,effect on,action,IC50 [µM]
"DRD1 (Homo sapiens, UniProt P21728)",cell-free assay,,> 30
rat benzodiazepine receptor,binding,,> 30
"CAMK2D (Homo sapiens, UniProt Q13557)",enzyme activity,inhibitor,> 30
"Insulin receptor (INSR, Homo sapiens, UniProt P06213)",enzyme activity,inhibitor,> 30
"JAK3 (Homo sapiens, UniProt P52333)",enzyme activity,inhibitor,> 30
"CDK2 (Homo sapiens, UniProt P24941)",enzyme activity,inhibitor,> 30
"AKT1 (Homo sapiens, UniProt P31749)",enzyme activity,inhibitor,> 30
"JAK1 (Homo sapiens, UniProt P23458)",enzyme activity,inhibitor,> 30
"PDE4D (Homo sapiens, UniProt Q08499)",cell-free assay,inhibitor,2.22

# Study 3 — effect on: enzyme activity; action: inhibitor; concentration: 10 µM
# Target: Calcium/calmodulin-dependent protein kinase type II subunit alpha (CAMK2A, Homo sapiens, UniProt Q9UQM7)
# UniProt Q9UQM7, sequence (whole entry, looked up): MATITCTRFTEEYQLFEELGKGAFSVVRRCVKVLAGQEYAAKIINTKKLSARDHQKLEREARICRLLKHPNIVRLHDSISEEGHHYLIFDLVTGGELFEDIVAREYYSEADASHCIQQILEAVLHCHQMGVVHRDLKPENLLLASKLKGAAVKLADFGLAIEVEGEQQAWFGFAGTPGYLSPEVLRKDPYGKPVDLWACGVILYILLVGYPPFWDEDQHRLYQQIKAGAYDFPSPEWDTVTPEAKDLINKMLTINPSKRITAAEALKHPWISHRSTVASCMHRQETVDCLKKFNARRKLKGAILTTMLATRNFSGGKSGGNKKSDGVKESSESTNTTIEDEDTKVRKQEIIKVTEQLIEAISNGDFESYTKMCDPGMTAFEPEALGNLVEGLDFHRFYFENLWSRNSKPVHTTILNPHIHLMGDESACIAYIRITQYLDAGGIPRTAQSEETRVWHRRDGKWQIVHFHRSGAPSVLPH
Structure (SMILES),inhibition [%]
O=C(O)c1cccc2nc3ccccc3nc12,6
C[C@]12CCC(=O)C=C1C=C[C@@H]1[C@@H]2CC[C@@]2(C)[C@H]1CC[C@@]2(O)CCC(=O)O,-16
C[C@@H]1CCC=C2C(=O)C[C@H]3OOC(C)(C)[C@H]3[C@]21C,-38
O=C(O)[C@@H]1CCN1,-5

# Study 4 — effect on: enzyme activity; action: inhibitor; concentration: 0.5 µM; reference: control
# Structure (SMILES): CCn1cnc2c(Nc3cccc(Cl)c3)nc(N[C@H]3CCCC[C@H]3N)nc21
target,remaining activity [%]
"MATK (Homo sapiens, UniProt P42679)",88.3
"HIPK1 (Homo sapiens, UniProt Q86Z02)",97.5
"SRC (Homo sapiens, UniProt P12931)",54.7
"TAOK3 (Homo sapiens, UniProt Q9H2K8)",104
"LIM domain kinase 1 (LIMK1, Homo sapiens, UniProt P53667)",108

# A few entries again (study 1):
target,remaining binding
"EPHB3 (Homo sapiens, UniProt P54753)",6%
"MAPK4 (Homo sapiens, UniProt P31152)",90%
